Experimental data pooled from the literature.
Protocols differ between the studies behind these lines. ± marks the error that the study gave.

Molecule | assay | system | conditions | how to read | quantity | value
Cc1[nH]c(/C=C2\C(=O)Nc3ccccc32)c(C)c1CCC(=O)O |  | human, Japanese patients, plasma | oral, dose not given, days 8 and 29, any dose level | reference: first dose day 1 | Cmax and AUC(0-t) decrease | ~2 fold
COc1cccc(-c2ccc(NC(=O)C3=C(C(=O)O)CCC3)c(F)c2)c1 |  | male healthy human, plasma | oral, 50 mg daily, day 13-14, all subjects | reference: day 0-1 | Cmax accumulation ratio | 1.79
CCn1c(C(=O)c2cc(C)cc(C#N)c2)c(C(C)C)c(=O)[nH]c1=O |  | healthy humans, plasma | oral, 75 to 600 mg once daily, 7 days, range of dose-group means |  | Cmax at steady state | 385 to 1100 ng/mL
COCCCCn1c(C(=O)N(CC(C)C)[C@@H]2CNC[C@H](C(=O)N3CCOCC3)C2)nc2ccccc21 |  | non-elderly human, plasma | oral, 80 mg once daily | reference: later day over first day | Cmax accumulation ratio | 105%
CC(C)c1nc(N(C)S(C)(=O)=O)nc(-c2ccc(F)cc2)c1/C=C/[C@@H](O)C[C@@H](O)CC(=O)O |  | human, plasma | oral, dose not given, added: finerenone 40 mg steady state simultaneous | reference: compound alone | Cmax increase | 11%
CCCC(CCC)C(=O)O | regression tree, measured: chills | human, plasma | intravenous |  | Cmax breakpoint | > 738000 ng/mL
CNC(=O)c1ccc(-c2cnc3ncc(Cc4ccc5ncccc5c4)n3n2)cc1F |  | human, mild hepatic impairment (Child-Pugh A), plasma | oral, 200 mg single dose |  | Cmax (mean) | 1380 ng/mL
COC(=O)c1ccc2c(c1)NC(=O)/C2=C(\Nc1ccc(N(C)C(=O)CN2CCN(C)CC2)cc1)c1ccccc1 |  | human moderate liver impairment, plasma | oral, 200 mg twice daily, geometric mean |  | Cmax steady state | 142 ng/mL
CCOc1cc([C@@H](CS(C)(=O)=O)N2C(=O)c3cccc(NC(C)=O)c3C2=O)ccc1OC |  | healthy humans, plasma | 30 mg, added: multiple oral rifampicin doses | reference: with rifampicin over alone | Cmax ratio | 57%
CC[C@@H]1C(=O)N(C)c2cnc(Nc3ccc(C(=O)N[C@H]4CC[C@H](N5CCN(CC6CC6)CC5)CC4)cc3OC)nc2N1C(C)C |  | human, plasma | intravenous infusion, 50 mg over 2 h, first infusion |  | Cmax geometric mean | 106 ng/mL
CN(C)C/C=C/C(=O)Nc1cc2c(Nc3ccc(F)c(Cl)c3)ncnc2cc1O[C@H]1CCOC1 |  | human, plasma | oral, 20 mg once daily, day 27, geometric mean |  | Cmax at steady state | 24.6 ng/mL
CCC1=C(C)CN(C(=O)NCCc2ccc(S(=O)(=O)NC(=O)N[C@H]3CC[C@H](C)CC3)cc2)C1=O |  | human, plasma | oral, 4 mg once daily, added: evogliptin 5 mg |  | Cmax steady state | 351 ± 97.4 ng/mL
CC#CC(=O)N1CC[C@@H](n2c(=O)n(-c3ccc(Oc4ccccc4)cc3)c3c(N)ncnc32)C1 |  | human, plasma | oral, 160 mg once daily, cycle 1 day 1, fasting |  | Cmax | 611 ng/mL
COC(=O)c1ccc2c(c1)NC(=O)/C2=C(\Nc1ccc(N(C)C(=O)CN2CCN(C)CC2)cc1)c1ccccc1 |  | human, healthy, plasma | oral, 50 mg, added: ketoconazole 400 mg | reference: alone | Cmax ratio | 180%
O=C(NC[C@H]1CN(c2ccc(N3CCOCC3=O)cc2)C(=O)O1)c1ccc(Cl)s1 |  | human, moderate renal impairment, plasma | oral, 10 mg, added: erythromycin at steady state | reference: same subjects, compound alone | Cmax increase | ~21%
coproporphyrin III | measured: compound endogenous | human, plasma | added: rosuvastatin and finerenone | reference: with over without finerenone | Cmax ratio | 89.1%
C/C=C1\NC(=O)[C@H]2CSSCC/C=C/[C@H](CC(=O)N[C@H](C(C)C)C(=O)N2)OC(=O)[C@H](C(C)C)NC1=O |  | human patients, plasma | dose not given, added: tenalisib | reference: compound alone | Cmax and AUC(0-t) | no effect
COc1ccc(-c2ccc3c(N4CCOC[C@@H]4C)nc(N4CCOC[C@@H]4C)nc3n2)cc1CO |  | human, plasma | oral, 20 mg twice daily, oral solution |  | Cmax at steady state | 26.2 to 38.9 ng/mL
CCOC(=O)[C@H](C)C[C@@H](Cc1ccc(-c2ccccc2)cc1)NC(=O)CCC(=O)O |  | male human, plasma | oral, dose not given, day 8, adjusted geometric mean, added: sildenafil |  | Cmax at steady state | 2080 ng/mL
COc1ccc2cc3[n+](cc2c1OC)CCc1cc2c(cc1-3)OCO2 |  | human | oral, 29.8 mg every 8 h |  | Cmax at steady state | ~0.59 nM
O=c1[nH]c(=O)c2c[nH]nc2[nH]1 |  | human, male, plasma | oral, 10 mg, added: allopurinol 300 mg | reference: combination over alone | Cmax ratio | 67.9%
CCCCC(=O)N(Cc1ccc(-c2ccccc2-c2nnn[nH]2)cc1)[C@H](C(=O)O)C(C)C |  | male human, plasma | oral, 400 mg, day 7, alone, adjusted geometric mean |  | Cmax at steady state | 4990 ng/mL
CCOc1c([C@H](C)n2nc(C)c3c(N)ncnc32)cc(Cl)c(F)c1[C@@H]1CNC(=O)C1 |  | healthy fasted humans, plasma | oral, 20 mg |  | Cmax geometric mean | 1630 nM
CC(C)c1nc(N(C)S(C)(=O)=O)nc(-c2ccc(F)cc2)c1/C=C/[C@@H](O)C[C@@H](O)CC(=O)O |  | human fed, plasma | oral, 20 mg single dose, added: ziritaxestat 600 mg once daily | reference: with over without ziritaxestat | Cmax ratio | 2.4

Excerpt of the above:
Molecule | assay | system | conditions | how to read | quantity | value
CC#CC(=O)N1CC[C@@H](n2c(=O)n(-c3ccc(Oc4ccccc4)cc3)c3c(N)ncnc32)C1 |  | human, plasma | oral, 160 mg once daily, cycle 1 day 1, fasting |  | Cmax | 611 ng/mL
COC(=O)c1ccc2c(c1)NC(=O)/C2=C(\Nc1ccc(N(C)C(=O)CN2CCN(C)CC2)cc1)c1ccccc1 |  | human, healthy, plasma | oral, 50 mg, added: ketoconazole 400 mg | reference: alone | Cmax ratio | 180%
